Results from different studies.
Numbered parts are unrelated; each lists some results of a single study.
Sequence of UniProt P36507 (whole entry, looked up): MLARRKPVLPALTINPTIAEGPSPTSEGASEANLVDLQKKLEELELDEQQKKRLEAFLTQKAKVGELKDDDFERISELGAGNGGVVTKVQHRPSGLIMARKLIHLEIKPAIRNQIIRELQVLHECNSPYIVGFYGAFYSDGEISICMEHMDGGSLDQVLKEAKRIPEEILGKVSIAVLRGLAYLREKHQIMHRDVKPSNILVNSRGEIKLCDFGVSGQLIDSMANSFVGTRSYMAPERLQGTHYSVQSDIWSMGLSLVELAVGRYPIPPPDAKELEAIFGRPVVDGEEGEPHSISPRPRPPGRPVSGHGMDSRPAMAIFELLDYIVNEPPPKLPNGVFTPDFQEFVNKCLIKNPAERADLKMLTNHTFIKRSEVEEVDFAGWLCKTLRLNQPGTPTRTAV
Sequence of UniProt Q15349 (whole entry, looked up): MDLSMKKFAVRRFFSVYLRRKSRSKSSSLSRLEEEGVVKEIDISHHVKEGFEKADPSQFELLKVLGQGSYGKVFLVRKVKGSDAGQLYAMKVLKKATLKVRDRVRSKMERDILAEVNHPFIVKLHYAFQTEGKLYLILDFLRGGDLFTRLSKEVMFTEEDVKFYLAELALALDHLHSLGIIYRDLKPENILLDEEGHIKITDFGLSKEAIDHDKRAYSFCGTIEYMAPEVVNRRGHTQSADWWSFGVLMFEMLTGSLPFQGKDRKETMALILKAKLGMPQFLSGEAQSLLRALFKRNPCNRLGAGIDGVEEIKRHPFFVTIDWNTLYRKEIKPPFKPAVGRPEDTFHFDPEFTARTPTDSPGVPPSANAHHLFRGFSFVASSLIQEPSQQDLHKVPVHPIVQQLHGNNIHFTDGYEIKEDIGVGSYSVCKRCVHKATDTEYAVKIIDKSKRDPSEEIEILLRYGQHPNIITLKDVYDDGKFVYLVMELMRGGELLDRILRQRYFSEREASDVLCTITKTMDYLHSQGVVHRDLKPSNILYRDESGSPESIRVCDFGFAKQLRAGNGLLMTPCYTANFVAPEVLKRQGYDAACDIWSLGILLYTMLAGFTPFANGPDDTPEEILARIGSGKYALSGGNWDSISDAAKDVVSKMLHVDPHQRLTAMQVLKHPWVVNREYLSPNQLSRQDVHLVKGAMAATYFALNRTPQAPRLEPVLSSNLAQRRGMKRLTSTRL
Sequence of UniProt P30291 (whole entry, looked up): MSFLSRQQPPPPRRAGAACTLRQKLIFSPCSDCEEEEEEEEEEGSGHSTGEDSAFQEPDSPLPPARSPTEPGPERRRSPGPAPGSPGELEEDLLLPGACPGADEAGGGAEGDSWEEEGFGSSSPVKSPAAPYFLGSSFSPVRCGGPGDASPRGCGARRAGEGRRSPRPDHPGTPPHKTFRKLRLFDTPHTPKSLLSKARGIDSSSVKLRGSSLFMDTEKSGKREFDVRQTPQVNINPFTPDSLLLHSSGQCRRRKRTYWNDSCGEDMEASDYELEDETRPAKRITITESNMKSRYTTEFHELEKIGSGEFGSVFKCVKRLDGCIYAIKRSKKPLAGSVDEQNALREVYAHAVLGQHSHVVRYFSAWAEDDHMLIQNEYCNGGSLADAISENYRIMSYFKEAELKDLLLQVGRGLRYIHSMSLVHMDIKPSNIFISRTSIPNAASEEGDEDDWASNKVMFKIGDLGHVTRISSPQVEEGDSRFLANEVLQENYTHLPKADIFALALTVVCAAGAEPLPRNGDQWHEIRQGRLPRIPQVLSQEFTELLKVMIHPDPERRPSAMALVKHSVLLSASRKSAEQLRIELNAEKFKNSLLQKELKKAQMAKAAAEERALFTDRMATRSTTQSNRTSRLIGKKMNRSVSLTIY
Sequence of UniProt Q9HC98 (whole entry, looked up): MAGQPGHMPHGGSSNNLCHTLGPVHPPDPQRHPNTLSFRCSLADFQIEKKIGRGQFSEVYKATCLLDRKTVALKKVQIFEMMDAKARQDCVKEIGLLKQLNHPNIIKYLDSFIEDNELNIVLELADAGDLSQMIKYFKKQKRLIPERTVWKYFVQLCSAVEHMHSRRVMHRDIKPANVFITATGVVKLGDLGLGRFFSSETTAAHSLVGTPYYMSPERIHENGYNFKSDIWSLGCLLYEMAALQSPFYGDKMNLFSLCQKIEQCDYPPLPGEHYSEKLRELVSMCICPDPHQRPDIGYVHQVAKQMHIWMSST
Sequence of UniProt Q9NRH2 (whole entry, looked up): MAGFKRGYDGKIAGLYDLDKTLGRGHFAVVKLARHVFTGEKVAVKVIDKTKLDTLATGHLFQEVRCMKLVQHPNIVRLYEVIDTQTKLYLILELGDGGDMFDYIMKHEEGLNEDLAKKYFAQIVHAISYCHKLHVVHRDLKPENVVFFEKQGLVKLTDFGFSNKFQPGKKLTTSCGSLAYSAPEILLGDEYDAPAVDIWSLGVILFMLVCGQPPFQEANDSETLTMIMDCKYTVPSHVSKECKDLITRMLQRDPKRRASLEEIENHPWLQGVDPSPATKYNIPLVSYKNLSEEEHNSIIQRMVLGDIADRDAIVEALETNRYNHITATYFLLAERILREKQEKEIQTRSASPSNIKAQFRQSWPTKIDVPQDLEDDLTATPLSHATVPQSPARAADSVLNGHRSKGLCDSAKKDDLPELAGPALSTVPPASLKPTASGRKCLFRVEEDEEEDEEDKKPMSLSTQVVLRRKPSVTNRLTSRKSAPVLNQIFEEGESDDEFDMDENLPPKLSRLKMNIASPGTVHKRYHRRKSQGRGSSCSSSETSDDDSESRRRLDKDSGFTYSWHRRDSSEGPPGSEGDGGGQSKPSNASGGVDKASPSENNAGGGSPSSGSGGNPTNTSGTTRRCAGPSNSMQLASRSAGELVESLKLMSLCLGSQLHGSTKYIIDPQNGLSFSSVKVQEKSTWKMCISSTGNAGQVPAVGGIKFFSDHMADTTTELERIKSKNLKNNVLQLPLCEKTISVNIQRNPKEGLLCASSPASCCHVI
Sequence of UniProt P0C264 (whole entry, looked up): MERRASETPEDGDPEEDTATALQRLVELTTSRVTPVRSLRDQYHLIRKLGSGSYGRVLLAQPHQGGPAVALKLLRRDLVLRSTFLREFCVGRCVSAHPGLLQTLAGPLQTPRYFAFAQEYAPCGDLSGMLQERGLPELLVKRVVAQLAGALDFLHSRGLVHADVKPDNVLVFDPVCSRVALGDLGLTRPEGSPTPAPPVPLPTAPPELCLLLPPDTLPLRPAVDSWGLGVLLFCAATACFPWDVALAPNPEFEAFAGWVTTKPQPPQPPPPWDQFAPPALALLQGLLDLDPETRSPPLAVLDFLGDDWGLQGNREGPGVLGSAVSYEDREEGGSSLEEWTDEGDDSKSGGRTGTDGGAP
Sequence of UniProt Q96PY6 (whole entry, looked up): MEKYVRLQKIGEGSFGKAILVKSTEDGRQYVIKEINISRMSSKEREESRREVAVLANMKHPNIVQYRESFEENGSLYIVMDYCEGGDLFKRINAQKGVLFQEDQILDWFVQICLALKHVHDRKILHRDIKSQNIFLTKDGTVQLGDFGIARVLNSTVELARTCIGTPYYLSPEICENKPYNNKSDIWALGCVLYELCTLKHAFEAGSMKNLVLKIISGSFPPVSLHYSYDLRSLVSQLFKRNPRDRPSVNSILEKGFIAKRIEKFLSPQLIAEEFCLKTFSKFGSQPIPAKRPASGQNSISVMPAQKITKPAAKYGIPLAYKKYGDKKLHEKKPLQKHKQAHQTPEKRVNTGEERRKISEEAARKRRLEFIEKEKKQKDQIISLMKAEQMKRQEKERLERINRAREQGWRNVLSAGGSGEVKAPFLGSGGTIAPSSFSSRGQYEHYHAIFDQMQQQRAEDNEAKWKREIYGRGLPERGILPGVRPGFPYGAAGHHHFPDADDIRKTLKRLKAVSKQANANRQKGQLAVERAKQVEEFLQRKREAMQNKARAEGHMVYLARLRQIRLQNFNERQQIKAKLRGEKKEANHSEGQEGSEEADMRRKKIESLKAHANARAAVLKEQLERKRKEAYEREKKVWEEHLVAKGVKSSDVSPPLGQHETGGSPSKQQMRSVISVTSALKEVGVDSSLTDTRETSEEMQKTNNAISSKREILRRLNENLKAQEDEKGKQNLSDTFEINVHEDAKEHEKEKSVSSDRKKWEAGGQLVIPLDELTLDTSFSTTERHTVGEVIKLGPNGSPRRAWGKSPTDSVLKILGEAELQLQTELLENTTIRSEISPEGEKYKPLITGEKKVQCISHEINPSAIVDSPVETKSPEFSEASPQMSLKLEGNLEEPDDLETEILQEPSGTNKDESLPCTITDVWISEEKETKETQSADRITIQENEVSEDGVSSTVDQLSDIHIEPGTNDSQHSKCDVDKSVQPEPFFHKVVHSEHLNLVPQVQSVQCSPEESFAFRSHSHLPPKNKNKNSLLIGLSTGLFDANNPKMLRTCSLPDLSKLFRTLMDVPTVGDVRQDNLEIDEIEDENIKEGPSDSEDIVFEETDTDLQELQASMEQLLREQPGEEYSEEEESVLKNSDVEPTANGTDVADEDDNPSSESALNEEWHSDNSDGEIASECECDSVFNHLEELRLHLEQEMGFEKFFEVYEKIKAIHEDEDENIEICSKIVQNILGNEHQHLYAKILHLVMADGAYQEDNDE
Sequence of UniProt Q15208 (whole entry, looked up): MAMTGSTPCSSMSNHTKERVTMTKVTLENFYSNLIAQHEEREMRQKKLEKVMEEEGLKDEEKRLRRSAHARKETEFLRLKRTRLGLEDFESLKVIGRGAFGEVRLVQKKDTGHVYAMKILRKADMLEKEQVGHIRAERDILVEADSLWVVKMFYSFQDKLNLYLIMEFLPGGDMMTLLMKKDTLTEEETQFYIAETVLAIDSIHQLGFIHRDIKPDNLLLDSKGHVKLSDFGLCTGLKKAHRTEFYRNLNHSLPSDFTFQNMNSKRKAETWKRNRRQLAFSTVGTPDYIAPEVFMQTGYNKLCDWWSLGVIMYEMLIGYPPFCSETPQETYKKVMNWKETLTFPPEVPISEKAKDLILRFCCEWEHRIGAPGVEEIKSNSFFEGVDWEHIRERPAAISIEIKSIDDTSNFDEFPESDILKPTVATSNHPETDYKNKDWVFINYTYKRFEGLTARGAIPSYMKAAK

Set 1 — SMILES: CCCCc1c(-c2ccc(OC)cc2)[nH]c2nccnc12; read-out: enzyme activity; action: inhibitor; concentration: 0.5 µM; reference: control
target | remaining activity [%]
MAP2K2 (Homo sapiens, UniProt P36507) | 79.4
GRK7 (Homo sapiens, UniProt Q8WTQ7) | 94.1
NEK6 (Homo sapiens, UniProt Q9HC98) | 111
NEK1 (Homo sapiens, UniProt Q96PY6) | 86.9
MERTK (Homo sapiens, UniProt Q12866) | 92.6
ACVR1B (Homo sapiens, UniProt P36896) | 112
ULK2 (Homo sapiens, UniProt Q8IYT8) | 108
FGFR3 (Homo sapiens, UniProt P22607) | 86.8
TBK1 (Homo sapiens, UniProt Q9UHD2) | 81.4
CSNK1G3 (Homo sapiens, UniProt Q9Y6M4) | 89.2
TAOK2 (Homo sapiens, UniProt Q9UL54) | 90.1
WEE1 (Homo sapiens, UniProt P30291) | 85.9
MAPK3 (Homo sapiens, UniProt P27361) | 111
MST1R (Homo sapiens, UniProt Q04912) | 104

Set 2 — read-out: cell-free assay; method: competition with immobilised ligand; concentration: 1 µM
Structure (SMILES): C[C@H](c1ccc(F)cc1)N(Cc1cccc(C(=O)O)c1)C(=O)c1cnc2ccccc2c1
target | remaining binding
STK38 (Homo sapiens, UniProt Q15208) | 100%
CLK4 (Homo sapiens, UniProt Q9HAZ1) | 66%
EGFR (Homo sapiens, UniProt P00533, L861Q) | 100%
Ribosomal protein S6 kinase alpha-3, N-terminal kinase domain (RPS6KA3, Homo sapiens, UniProt P51812) | 100%
RAF1 (Homo sapiens, UniProt P04049) | 100%
Tyrosine-protein kinase ABL1, phosphorylated (ABL1, Homo sapiens, UniProt P00519, M351T) | 94%
Tyrosine-protein kinase ABL1, non-phosphorylated (ABL1, Homo sapiens, UniProt P00519, H396P) | 73%
NEK10 (Homo sapiens, UniProt Q6ZWH5) | 96%
TAOK1 (Homo sapiens, UniProt Q7L7X3) | 100%
MAP3K14 (Homo sapiens, UniProt Q99558) | 100%
MAP3K11 (Homo sapiens, UniProt Q16584) | 100%
Ribosomal protein S6 kinase alpha-2, C-terminal kinase domain (RPS6KA2, Homo sapiens, UniProt Q15349) | 100%
PRKCD (Homo sapiens, UniProt Q05655) | 100%
SNRK (Homo sapiens, UniProt Q9NRH2) | 96%
SBK3 (Homo sapiens, UniProt P0C264) | 100%
EGFR (Homo sapiens, UniProt P00533, del752-759) | 100%
YES1 (Homo sapiens, UniProt P07947) | 100%
NLK (Homo sapiens, UniProt Q9UBE8) | 86%
MAP2K2 (Homo sapiens, UniProt P36507) | 100%
SRPK2 (Homo sapiens, UniProt P78362) | 98%

Set 3 — species: human; medium: microsomes or S9; concentration: 2 µM; time: 0.5 h
SMILES | remaining compound
Fc1ccc2onc(-c3cnc4c(c3)COc3ccccc3-4)c2c1 | 5.02%
COCCNC(=O)c1ccc(-n2ncc(C(=O)OC)c2N)cc1 | 93.6%
O=C(Nc1ccccc1OC1CCCC1)c1c(O)cc(=O)n2c1CCC2 | 63.3%
CCOC(=O)C(OC(C)(C)C)c1c(C)nc2c(Br)c(C)nn2c1-c1ccc(Cl)cc1 (centres unmarked) | 73.2%
CO[C@@H]1CCOC[C@H]1NS(=O)(=O)c1c(Cl)nc2sccn12 | 41.9%
COC(=O)c1cc(I)c(N)c(I)c1C | 11.9%

Further values, each from its own experiment
SMILES | test system | conditions | measurement | value
CC(C)n1cnc(-c2ccc(F)cc2)c1-c1ncc(C(=O)Nc2ccc(N3CCN(C)CC3)cc2)[nH]1 | human, idiopathic pulmonary fibrosis | 30 mg once daily, trial, treatment-emergent | patients with back pain | 0%

Excerpt of the above (set 1):
target | remaining activity [%]
CSNK1G3 (Homo sapiens, UniProt Q9Y6M4) | 89.2
NEK6 (Homo sapiens, UniProt Q9HC98) | 111
GRK7 (Homo sapiens, UniProt Q8WTQ7) | 94.1
MERTK (Homo sapiens, UniProt Q12866) | 92.6
ACVR1B (Homo sapiens, UniProt P36896) | 112
MAP2K2 (Homo sapiens, UniProt P36507) | 79.4
TAOK2 (Homo sapiens, UniProt Q9UL54) | 90.1
